Measured values gathered from unrelated publications.
Protocols differ between the studies behind these lines. Numbers after ± are the reported error.

| Structure (SMILES) | test | test system | conditions | tissue uptake |
| --- | --- | --- | --- | --- |
| CCCC[C@H](NC(=O)CNC(=O)CNC(=O)[C@H](CCCCNC(=O)[C@H](CCN)NC(=O)C(C)c1ccc(CC(C)C)cc1)NC(=O)CN1CCN(CC(=O)O)CCN(CC(=O)O)CCN(CC(=O)O)CC1)C(=O)N[C@H]1CC(=O)NCCCC[C@@H](C(N)=O)NC(=O)[C@H](Cc2c[nH]c3ccccc23)NC(=O)[C@H](CCCNC(=N)N)NC(=O)[C@@H](Cc2ccccc2)NC(=O)[C@H](Cc2c[nH]cn2)NC1=O (stereo partly shown) [lutetium-177 labelled] |  | C57 mice, tumour-bearing, bone | 2 h | 1.01 ± 0.05 %ID/g |
| N#C[C@@H]1CCCN1C(=O)CNC(=O)c1ccnc2ccc(OCCCN3CCN(C(=O)CCc4ccc5c(c4)CN4CCN6CC(=O)[O][68Ga-]([O]C(=O)C4)([O]5)[O]c4ccc(CCC(=O)N5CCN(CCCOc7ccc8nccc(C(=O)NCC(=O)N9CCC[C@H]9C#N)c8c7)CC5)cc4C6)CC3)cc12 |  | BALB/c nude mice, U-87 MG tumour, gallbladder | 120 min post-injection | 42 ± 12.9 %ID/g |
| COc1ccc(Nc2nc(Nc3ccc(OCCOCCOCC[18F])cc3)ncc2Br)cc1 |  | ICR mice, S180 tumour, stomach | intravenous, 370 kBq, 15 min | 1.44 ± 0.06 %ID |
| O=C([O-])CN1CCN(CC(=O)[O-])CCN(CC(=O)NC[C@H]2CC[C@H](C(=O)N[C@H](Cc3cnc4ccccc4c3)C(=O)NCCCC[C@H](NC(=O)N[C@@H](CCC(=O)O)C(=O)O)C(=O)O)CC2)CCN(CC(=O)[O-])CC1.[64Cu+2] | ex vivo gamma counting | 22Rv1 tumour-bearing mice, heart | intravenous, 0.74 MBq, 6 h post-injection | 5.65 %ID/g |
| Cc1cc(C)n(CCN(CCN)CCCCCCNC(=O)[C@@H](N)Cc2c[nH]c3ccccc23)n1.[99Tc+].[C-]#[O+].[C-]#[O+].[C-]#[O+] |  | BALB/c nude mice, A549 xenograft, lung | intravenous, 4 h | 0.33 ± 0.04 %IA/g |
| O=C(NCC1OC2CCC=CCCC2O1)c1ccc([18F])nc1 (stereo not shown) |  | female BALB/c nude mice, LS174T tumour, bone | intravenous, 60 min, with: CC49-tetrazine 24 h before | 0.8 ± 0.4 %ID/g |
| CCCC[C@H](NC(=O)COCCOCCNC(=O)CN1CCN(CC(=O)O)CCN(CC(=O)O)CC1)C(=O)N[C@H]1CC(=O)NCCCC[C@@H](C(N)=O)NC(=O)[C@H](Cc2c[nH]c3ccccc23)NC(=O)[C@H](CCCNC(=N)N)NC(=O)[C@@H](Cc2ccccc2)NC(=O)[C@H](Cc2c[nH]cn2)NC1=O [fluorine-18 labelled] |  | C57 mice B16-F10 melanoma, bone | intravenous, 0.37 MBq, 2 h | 3.56 ± 1.34 %ID/g |
| COc1ccc2c(c1)C(C)(C)C(/C=C/C1=C(Oc3ccc(C(=O)NCCCCOc4cc(CN(Cc5ccccn5)Cc5ccccn5)cc(CN(Cc5ccccn5)Cc5ccccn5)c4)cc3)C(=C/C=C3/N(CCCCS(=O)(=O)[O-])c4ccc(OC)cc4C3(C)C)CCC1)=[N+]2CCCCS(=O)(=O)[O-].O=[N+]([O-])[O-].O=[N+]([O-])[O-].[99Tc+].[C-]#[O+].[C-]#[O+].[C-]#[O+].[Zn+2] |  | BALB/c mice, S. aureus myositis, blood | 12 h post-injection | 1.26 %ID/g |
| COc1ccc(Nc2nc(Nc3ccc(OCCOCC[18F])cc3)ncc2Br)cc1 |  | ICR mice, S180 tumour, stomach | intravenous, 370 kBq, 120 min | 0.27 ± 0.03 %ID |
| N#C[C@@H]1CCCN1C(=O)CNC(=O)c1ccnc2ccc(OCCCN3CCN(C(=O)CCc4ccc5c(c4)CN4CCN(Cc6cc(CCC(=O)O)ccc6O)CC(=O)[O][Al-]([18F])([O]C(=O)C4)[O]5)CC3)cc12 (stereo partly shown) |  | BALB/c nude mice, U-87 MG xenograft, heart | 2 h | 0.61 ± 0.11 %ID/g |
| O=C(NCC1OC2CCC=CCCC2O1)c1ccc(COCCOCCOCC[18F])cc1 (stereo not shown) |  | healthy female BALB/c nude mice, pancreas | intravenous, 7.4 MBq per mouse, 120 min | 1.1 ± 0.03 %ID/g |
| Cc1cc(C)n(CCN(CCN)CCCCCCNC(=O)[C@@H](N)Cc2c[nH]cn2)n1.[99Tc+].[C-]#[O+].[C-]#[O+].[C-]#[O+] |  | BALB/c nude mice, A549 xenograft, liver | intravenous, 4 h | 13.1 ± 1.33 %IA/g |
| N#C[C@@H]1CCCN1C(=O)CNC(=O)c1ccnc2ccc(OCCCN3CCN(C(=O)CCc4ccc(O)c(CN5CCN6CC(=O)[O][Al-]([18F])([O]C(=O)C5)[O]c5ccc(CCC(=O)N7CCN(CCCOc8ccc9nccc(C(=O)NCC(=O)N%10CCC[C@H]%10C#N)c9c8)CC7)cc5C6)c4)CC3)cc12 (stereo partly shown) |  | BALB/c nude mice, U-87 MG xenograft, pancreas | 1 h, blocking, with: DOTA-FAPI-04 40 nmol/mouse co-injected | 2.14 ± 1.44 %ID/g |
| O=C(O)CCCOc1ccc([18F])cc1-c1cc(-c2ccccc2C(F)(F)F)n(-c2ccccc2)n1 |  | mice, small intestine | intravenous, 30 min | 1.76 ± 0.1 %ID/g |
| CC(C)C[C@H](NC(=O)[C@@H](CCCCNC(=O)[C@@H](Cc1ccccc1)NC(=O)CCCCCCCNC(=O)CN1CCN(CC(=O)O)CCN(CC(=O)O)CCN(CC(=O)O)CC1)NC(=O)[C@H](Cc1ccc(O)cc1)NC(=O)[C@H](CO)NC(=O)[C@H](Cc1c[nH]c2ccccc12)NC(=O)[C@H](Cc1c[nH]cn1)NC(=O)[C@@H]1CCC(=O)N1)C(=O)N[C@@H](CCCNC(=N)N)C(=O)N1CCC[C@H]1C(=O)NCC(N)=O [indium-111 labelled] | biodistribution | male athymic nude mice, DU-145 prostate cancer xenograft, tumor | intravenous, 0.037 MBq, 0.5 h post-injection | 1.13 ± 0.36 %ID/g |
| CCCC[C@H](NC(=O)CCCCCCCNC(=O)CN1CCN(CC(=O)O)CCN(CC(=O)O)CC1)C(=O)N[C@H]1CC(=O)NCCCC[C@@H](C(N)=O)NC(=O)[C@H](Cc2c[nH]c3ccccc23)NC(=O)[C@H](CCCNC(=N)N)NC(=O)[C@@H](Cc2ccccc2)NC(=O)[C@H](Cc2c[nH]cn2)NC1=O [fluorine-18 labelled] |  | C57 mice, B16/F10 melanoma, intestines | intravenous, 0.37 MBq, 0.5 h | 1.74 ± 0.44 %ID |

Excerpt of the above:
| Structure (SMILES) | test | test system | conditions | tissue uptake |
| --- | --- | --- | --- | --- |
| O=C(NCC1OC2CCC=CCCC2O1)c1ccc([18F])nc1 (stereo not shown) |  | female BALB/c nude mice, LS174T tumour, bone | intravenous, 60 min, with: CC49-tetrazine 24 h before | 0.8 ± 0.4 %ID/g |
| CCCC[C@H](NC(=O)CNC(=O)CNC(=O)[C@H](CCCCNC(=O)[C@H](CCN)NC(=O)C(C)c1ccc(CC(C)C)cc1)NC(=O)CN1CCN(CC(=O)O)CCN(CC(=O)O)CCN(CC(=O)O)CC1)C(=O)N[C@H]1CC(=O)NCCCC[C@@H](C(N)=O)NC(=O)[C@H](Cc2c[nH]c3ccccc23)NC(=O)[C@H](CCCNC(=N)N)NC(=O)[C@@H](Cc2ccccc2)NC(=O)[C@H](Cc2c[nH]cn2)NC1=O (stereo partly shown) [lutetium-177 labelled] |  | C57 mice, tumour-bearing, bone | 2 h | 1.01 ± 0.05 %ID/g |
